Measurements collected from several papers.
Parts stem from different laboratories: compare values within a part only.

Sample 1 — technique: RNA Bind-n-Seq; form: RNA; sample: in vitro; tested at: not given; relative to: input RNA pool; reading: higher = stronger binding
Target: RING finger protein unkempt homolog, zinc fingers 1-6, GST-SBP tag (UNK, Homo sapiens, UniProt Q9C0B0, residues 30-357)
UniProt Q9C0B0, sequence (30-357, looked up): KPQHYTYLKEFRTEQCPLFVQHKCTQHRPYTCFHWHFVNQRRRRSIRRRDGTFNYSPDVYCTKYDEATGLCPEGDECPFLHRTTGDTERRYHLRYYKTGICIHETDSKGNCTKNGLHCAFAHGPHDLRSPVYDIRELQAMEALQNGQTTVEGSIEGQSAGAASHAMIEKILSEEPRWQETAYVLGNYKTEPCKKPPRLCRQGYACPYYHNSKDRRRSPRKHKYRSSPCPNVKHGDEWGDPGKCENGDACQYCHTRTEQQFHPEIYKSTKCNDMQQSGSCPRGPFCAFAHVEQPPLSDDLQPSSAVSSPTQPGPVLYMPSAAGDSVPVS
Notes: RNA with constant flanks, human and mouse sites, ends assumed
Constant ends, left off below: GGGAGUUCUACAGUCCGACGAUC … CAACAGAGGAUUGAGCAUCA
| Oligonucleotide | bound/input enrichment [ratio] |
| --- | --- |
| GAAAUGUAUGACUAUCAAGGCAGGUCCUACCUUCACAUACCUCAGGAUGUUGGUGUUAAUCUACGGUCAUCUGUGCCACCUGAAAAAUGUUACCUUCCCAAAAAACAAAUUCACGUGUGG | 0.163 |
| UUUCUUUUUCUUUUUCUUUUUAAAAUGUUAAUGCCCGUUGUCUUUCCUGGGCUGUUUGCUAGCGGAAGGAUGCCAGGGAAGCCAGCAGGAGCUAGGAGAGAGUCCGUGGAUCUCGAAAGA | 0.602 |
| AAUAUAUUACAGUUCAUUCCACAGAAAGCAUCCAAACCACCCAAAUGACCAAGGCAUAUAUAGUAUUUGGAGGAAUCAGGGGUUUGGAAGGAGUAGGGAGGAGAAUGAAGGAAAAUGCAA | 0.447 |
| GAGGCAGAAAAAAUGGACGGGGCAGCUUCACAAGGCAAGUCUUCAUGCUCGGUGAUGUGAUUCUGCUGCAAAGCCUGAGGACACUGGGAAUAUAUUCUACCUGAAGAAGCAAACUGCCCG | 0.199 |
| GUUCAGGGGCUUUGGAAGGGGAUGAGGAAGGAGUAGAACUCCUCCUCAGUGUUGCCUCAUUGAAACUCUGUUUAUAGUUCUUGUGAUAUGCCUUCCUAGUCUCAACUUUCAACUUACAAA | 0.753 |
| UAUAAGAACUCUUGCAGUCUUAGAUGUUAUAAAAAUAUAUAUCUGAAUUGUAAGAGUUGUUAGCACAAGUUUUUUUUUUUUUUUUUUUUAAGCACUUGUUUUGGGUACAAGGCAUUUCUG | 3.87 |
| AAAAAAAAAAGGAUUUGAAACCAUAAAGUGUUCUGAAGAAAUUAAGUCUAUAAAAAGCAUACUUUCUUUUUUCUUUUCCUUUUUUCCCUCCACAGACAAUGUCCUCUGUUCAAUUCCUAA | 0.17 |
| AAAUUCAAAGGCCCCUUCACAGAUGUAGUCACUACAAAUCUUAAAUUGCAAAAUCCAUCGGAUAGAAAAGUGUGUUUCAAAGUGAAGACUACAGCACCUCGCCGGUACUGUGUGCGGCCC | 0.308 |
| GCACCAAAAUAUCAGAUAGGAGAAAGAAUUCGAGUCAUCUUGGACAUGGAAGAUAAGACUUUAGCUUUUGAACGUGGAUAUGAGUUCCUGGGGGUUGCUUUUAGAGGACUUCCAAAGGUC | 1.04 |
| UUAUGUGCCUGUAUUUUUUUAAAAUGGUACACCAGAAAAGGACUGGCAGUCUACUUCUACCAUAGUUAAACUUCACCCUCUUUAAUUUCACAACAUAUUCUUUGGAAGCAGGAAGAAAUG | 1.37 |
| AUAUUUUUUGAACCUAAAAUACUUUACCGGGCAGCAGUGGAACAGGUCCCAGUAGAACCCUACAAGAUCCCCUUGUCUCAGGCUGAAGUCAUCCAGGAGGGCAGCGAUGUGACUCUGGUU | 0.66 |

Sample 2 — technique: RNA Bind-n-Seq; form: RNA; sample: in vitro; tested at: 365 nM; relative to: no-protein control; reading: higher = stronger binding
Target: RNA binding protein fox-1 homolog 2, RRM domain, GST-SBP tag (RBFOX2, Homo sapiens, UniProt O43251-10, residues 100-194)
Notes: natural RNA segment, single round, ends assumed
Constant ends, left off below: GGGAGUUCUACAGUCCGACGAUC … UGGAAUUCUCGGGUGCCAA
Target sequence (chain): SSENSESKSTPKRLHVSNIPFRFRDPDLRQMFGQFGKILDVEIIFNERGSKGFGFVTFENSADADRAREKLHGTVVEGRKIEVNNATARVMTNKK
| Oligonucleotide | RBNS enrichment (R) |
| --- | --- |
| UAAUUAAUGGAUCAUCAGCUUGACCUCUGUAAAGUGGCAUCUUAAAACUUUUACAGAUUUUUGCACAAAAAGUGGACAUUUAUUUUUCCUGUUUUUAAAACAGUUUUUCA | 1.1 |
| CUGGGCUCUGCCUUAAUCUCCUGGACUCCGGAGGACUGAGCCCCCACCGGAGCUGGCUGGGGCUUGGGUCAGGGUGAGGAAUAAAAGGAGCGAGGAAUCAAUGUUUUUAA | 0.384 |
| CACAGGUAGACCUGAAUCUGCCCAGCUUGUUGACAGCUCUUGUGUAUACUGUGUUGAAGCCAGACAGAAAAGUAAUGGGGCCACUUCUGAAACCUCUCAGCUGUUGAUCU | 1.19 |
| UCCUAUAUACCUUCUGUAAAUAACUUUUUUUGAGAAGGAAAUAAAAUCAGCUGGAACUGAACCCUAAUCUUGACUUUUGUCAUCCUUAUUCCUGGGAUCUCUCCUUUCAC | 0.311 |
| AGACAAGGAAGCCUCACCUGGCUUUGACCUGCCAUCCGUUGCUGAGGCCACUGGCUUCCAUCCUAAGAAUGAGGUGCAACAAGACCCCAUUCUCACAGAACCUCAAAGAC | 0.206 |
| AUCACUGGCUCCAGAAUUGUCUUUGCCCUUCUCACCUGUUCCUGGAAACUGGGGCAGCCAGUGCUUAUCUGCACACUCCAGAUGAGAAGGCAUACAGGAGGGGGCCCACU | 0.278 |
| UUAUGCACGGAACUCUGUUUCUAAGUGCCAAGCACAGAAAGCCGCUAAAUAAAAUCUUUGCAAUUGUUUCUGCAUGUUUGUUCAUACAGAAAAAUCAAAUAACAGCCUUG | 0.476 |
| UCCCACCCAAGGAGAACGUUUGGUACAAUCGACAUCCUAGCCCCACCCAGAGGUGGCCCUCCCAGGCUGGUAUUUAUCUGCAAGGUUGUAGUCAAGAGGUUUUUCUCCCC | 0.372 |
| UGCCUGCUGGAAGUCUGUUUUGGGGAGAAGCCUAGUAGAACUCCCAGCCCUCAGCUGUCAUCCUUCCUGCCCUGCCCCUCUGUUUUAUCCUGGUGGGUCUUGCCUGUGAC | 3.21 |
| UAGAUAAUGUGUAUCCUAAUAAAAUUGUUCUGCUUGUAUAUGAAAUAUUAAUAUCUACCAACACAUAGACUUCCUAAAAUCGAUAUAUUGCUUGAAUCACACUUUUACUG | 1.99 |
| AUGGAGUCAAAGGAGACCAUUUUGGAGCUUUAAGAUUUAACUGCCCUGCUGGAUUUCAGACUUGCAUGGGGCCUUUAGCCACUUCGUUUUGGCCAACUUCUCCCACUUGA | 0.599 |
| GCAGAUACGCUAGGUCUGCAGUUUGAUAUUUUGUAAAAUCCUCAAAAGCAAGGGAAGUGGCUACUUUGGAAUGCUCUUUAUAAUUUUUAUAAGCUGAAUUUUAUAUGUUA | 1.13 |

Sample 3 — technique: RNA Bind-n-Seq; form: RNA; sample: in vitro; tested at: 200 nM; notes: whole 134-nt RNA, ends assumed; added: 150 mM LiCl; relative to: input library; reading: higher = stronger binding; all molecules: 7-deaza-guanosine replaces G
Target: Ras GTPase-activating protein-binding protein 1, full length (G3BP1, Homo sapiens, UniProt Q13283)
UniProt Q13283, sequence (whole entry, looked up): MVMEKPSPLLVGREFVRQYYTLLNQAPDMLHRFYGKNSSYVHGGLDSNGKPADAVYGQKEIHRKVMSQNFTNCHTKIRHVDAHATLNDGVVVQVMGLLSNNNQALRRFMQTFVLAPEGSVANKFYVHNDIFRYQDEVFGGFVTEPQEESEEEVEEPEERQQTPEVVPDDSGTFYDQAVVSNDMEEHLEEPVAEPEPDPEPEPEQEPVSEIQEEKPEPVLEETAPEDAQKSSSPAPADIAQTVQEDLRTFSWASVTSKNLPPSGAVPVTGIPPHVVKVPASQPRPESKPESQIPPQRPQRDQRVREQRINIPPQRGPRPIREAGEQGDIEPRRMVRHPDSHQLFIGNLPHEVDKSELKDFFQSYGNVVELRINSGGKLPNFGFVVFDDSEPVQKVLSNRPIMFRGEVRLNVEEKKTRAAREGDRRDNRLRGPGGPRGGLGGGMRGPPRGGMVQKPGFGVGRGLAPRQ
Constant ends, left off below: GGGAGUUCUACAGUCCGACGAUC … UGGAAUUCUCGGGUGUCAAGG
| Oligonucleotide | log2 enrichment |
| --- | --- |
| UGUGCUACACAUCGUAUGUACCGAAUCGGGAAAAAAAGGGAAAAAAAGGGGAAAAAAAGGGGAAAGUAUUAUGUUACGCCGUUCGGAUCU | 0.277 |
| GCAGGAAGUAAAAACAAAUGGAAAUGCUUCGGAUAGUGGCAGGUGUGGGGGUUGCUAAGGAAAGGGUGGGAUGGGAGUGGGUAAAGAGUU | 0.305 |
| AGUCCUGUGCUACACAUCGUAUGUACCGAAUCGGGGUUUUUGGGGAGGGGAAAGGGGAAAGUAUUAUGUUACGCCGUUCGGAUCUGCACU | 0.656 |
| GUCCUGUGCUACACAUCGUAUGUACCGAAUCGGGGCCCCCGGGCCCCCGGGCCCCCGGAAAGUAUUAUGUUACGCCGUUCGGAUCUGCAC | -1.98 |
| CACAGACAACACGCACCCACACAGACACAGAGGGAAGGGGUUGGGAUGGGGACCGGGUGCACAGCAGGGCGGGGUAGGACCCCAGCCCCU | 0.279 |
| AAGUCCUGUGCUACACAUCGUAUGUACCGAAUCGGUUUGGUUUUUGGUUUUUUUGGAAAGUAUUAUGUUACGCCGUUCGGAUCUGCACUU | -0.997 |
| CACACACAACACGCACCCACACAGACACAGAGGGAAGGGGUUGGGAUGGGGACAGGGUGCACAGCAGGGCGGGGUAGGACCCCAGCCCCU | -0.0927 |
| UGUUCUGCAGAGGGGCGGUGUCAUUACUGAUGAAGAGGAAACCUCUAAGAAGAUAGCUGACCAGUUGGACAACAUUGUGGACAUGCGCGA | -2.72 |
| AGUCCUGUGCUACACAUCGUAUGUACCGAAUCGGGAAAAAGGGUUUUUUUGGGAGGGAAAGUAUUAUGUUACGCCGUUCGGAUCUGCACU | -1.5 |
| CAAGUCCUGUGCUACACAUCGUAUGUACCGAAUCGGAAAGGUUUUUUUGGUUUGGAAAGUAUUAUGUUACGCCGUUCGGAUCUGCACUUC | -2.59 |
| CACAGACAACACGCACCCACACAGACACAGAGGGAAGGGGUUGGGAUGGGGACAGGGUGCACAGCAGGGCGGGGUAGGACCCAAGCCCCU | -0.816 |

Sample 4 — technique: protein binding microarray; form: double-stranded DNA, one strand shown; sample: in vitro; tested at: not given; relative to: not given; reading: higher = stronger binding
Target: Histone acetyltransferase KAT6A, winged helix 2, GST fusion (KAT6A, Homo sapiens, UniProt Q92794, residues 85-181)
Notes: 8-mer, flanks averaged, mean of 2 arrays, mostly near background
Construct (chain): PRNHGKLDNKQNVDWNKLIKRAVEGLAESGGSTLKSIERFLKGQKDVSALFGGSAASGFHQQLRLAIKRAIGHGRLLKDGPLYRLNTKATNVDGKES
| Oligonucleotide | E-score |
| --- | --- |
| CACTCCCG | 0.097 |
| AGCTGCGA | 0.163 |
| GCTGTCAA | 0.145 |
| CACAACGA | 0.193 |
| AGTTAAGG | -0.0667 |
| GGCTGAAA | 0.249 |
| AGCTTACA | 0.0728 |
| GATTTTAC | -0.0163 |
| ACACAGAG | -0.00819 |
| TATTCTCA | -0.0325 |
| AAGATTCT | -0.0499 |
| CGGCATAA | 0.0457 |
| ATACAGCA | 0.137 |
| GAATCGAC | -0.0168 |
| TGAGATAA | -0.0643 |
| GGGAGAAC | 0.0868 |
| TGGATACA | -0.0831 |
| CCGTCTCA | -0.0579 |
| ATAAGAGC | 0.132 |
| GTTTCTGA | 0.0405 |
| ACAAAGAC | 0.0497 |
| GAGATGGA | 0.0271 |

For quick reference, copied from above (sample 3):
| Oligonucleotide | log2 enrichment |
| --- | --- |
| AGUCCUGUGCUACACAUCGUAUGUACCGAAUCGGGAAAAAGGGUUUUUUUGGGAGGGAAAGUAUUAUGUUACGCCGUUCGGAUCUGCACU | -1.5 |
| CACAGACAACACGCACCCACACAGACACAGAGGGAAGGGGUUGGGAUGGGGACCGGGUGCACAGCAGGGCGGGGUAGGACCCCAGCCCCU | 0.279 |
| UGUGCUACACAUCGUAUGUACCGAAUCGGGAAAAAAAGGGAAAAAAAGGGGAAAAAAAGGGGAAAGUAUUAUGUUACGCCGUUCGGAUCU | 0.277 |
| GCAGGAAGUAAAAACAAAUGGAAAUGCUUCGGAUAGUGGCAGGUGUGGGGGUUGCUAAGGAAAGGGUGGGAUGGGAGUGGGUAAAGAGUU | 0.305 |
| GUCCUGUGCUACACAUCGUAUGUACCGAAUCGGGGCCCCCGGGCCCCCGGGCCCCCGGAAAGUAUUAUGUUACGCCGUUCGGAUCUGCAC | -1.98 |
| UGUUCUGCAGAGGGGCGGUGUCAUUACUGAUGAAGAGGAAACCUCUAAGAAGAUAGCUGACCAGUUGGACAACAUUGUGGACAUGCGCGA | -2.72 |
